Published values pooled from the literature.
A part holds a random share of what one study measured.

Series 1
Target: Sigma intracellular receptor 2 (TMEM97, Homo sapiens, UniProt Q5BJF2)
Chain of UniProt Q5BJF2 (whole entry, looked up): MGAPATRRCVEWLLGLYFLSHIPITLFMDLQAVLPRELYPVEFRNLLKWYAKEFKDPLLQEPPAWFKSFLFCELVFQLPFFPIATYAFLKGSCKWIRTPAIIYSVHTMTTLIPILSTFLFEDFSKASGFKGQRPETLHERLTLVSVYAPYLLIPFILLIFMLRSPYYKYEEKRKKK
Observed: ligand displacement
Concentration: 10 µM
Quantity: inhibition
O=c1nc(-c2ccccn2)sc2ccccc12: 12.5%
CC(=O)Nc1ncc(CN2CCC[C@H](Cc3cc(C)nc(C)c3)C2)s1: 19%
Nc1nc(NCc2ccccc2)nc(-c2cccc(CO)c2)n1: 12.3%
C[C@H](c1ccc(F)cc1)N(Cc1cccc(C(=O)O)c1)C(=O)c1cnc2ccccc2c1: 3.36%
COc1cc(N[C@@H]2CCCC[C@]2(O)C(F)(F)F)ccc1F: 27.8%
CC(=O)N1CCC(c2ccc(C(=O)NC3=NCCN3)cc2C(F)(F)F)CC1: -0.12%
COc1cccc(NC(=O)c2nc3scc(CN(C)Cc4ccccc4)c3c(=O)[nH]2)c1: -10.8%
CN1CCN(C(=O)C(C)(C)c2ccc(C(=O)Nc3cn4cc(-c5cc(C(C)(C)C)cc(C(C)(C)C)c5)ccc4n3)cc2)CC1: 97.9%
C[C@@H](c1cccc(C#N)c1)n1cc(Cl)cc(C(N)=O)c1=N: 20.7%
Cc1ccc(-c2cnc([C@@]3(O)CC[C@H](C(=O)O)C(C)(C)C3)s2)cc1Nc1cccc(C(F)(F)F)n1: 27.4%
CS(=O)(=O)N1CCCC(NC(=O)[C@H](CCC2CCCCC2)NC(=O)c2ccc(CNC(=O)c3cnc4ccccn34)cc2)C1 (stereo partly shown): 32%
NC(=O)c1ccc2nc(-c3ccc(C4(N)CCC4)cc3)c(-c3ccccc3)n2n1: 39.9%

Series 2
Target: Serine/threonine-protein kinase 3 (STK3, Homo sapiens, UniProt Q13188)
Observed: enzyme activity
Action: inhibitor
Concentration: 0.5 µM
Relative to: control
Quantity: remaining activity
Target sequence (Q13188 1-491): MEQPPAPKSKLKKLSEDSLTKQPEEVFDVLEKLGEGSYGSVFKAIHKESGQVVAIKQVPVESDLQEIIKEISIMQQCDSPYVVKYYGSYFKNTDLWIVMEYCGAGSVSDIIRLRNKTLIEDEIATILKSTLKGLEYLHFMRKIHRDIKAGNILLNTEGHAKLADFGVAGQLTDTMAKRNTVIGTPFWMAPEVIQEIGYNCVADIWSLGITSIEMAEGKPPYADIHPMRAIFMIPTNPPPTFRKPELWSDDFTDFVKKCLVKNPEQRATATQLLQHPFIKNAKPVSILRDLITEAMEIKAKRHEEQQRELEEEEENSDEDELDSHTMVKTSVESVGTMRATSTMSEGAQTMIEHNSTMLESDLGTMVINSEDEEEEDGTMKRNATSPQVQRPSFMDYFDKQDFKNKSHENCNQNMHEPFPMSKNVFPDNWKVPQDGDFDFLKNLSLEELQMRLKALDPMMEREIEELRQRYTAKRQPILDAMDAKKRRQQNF
FC(F)(F)c1ccc(/C=C/c2nc(COc3ccc(CCCCn4ccnn4)cc3)co2)cc1: 95.5%
CC(C)(C)c1nc2c3cc[nH]c(=O)c3c3cc(F)ccc3c2[nH]1: 5.45%
CCCCc1c(-c2ccc(O)cc2)[nH]c2nccnc12: 76.6%
C[C@@H](N)[C@H]1CC[C@H](C(=O)Nc2ccncc2)CC1: 75.7%
Nc1nc(Nc2ccc(S(N)(=O)=O)cc2)nn1C(=S)Nc1c(F)cccc1F: 1.33%
CNc1cc2c(Nc3cccc(Br)c3)ncnc2cn1: 99.9%
NC(=O)c1ccc(-c2nc(-c3ccc4c(c3)OCCO4)c(-c3ccccn3)[nH]2)cc1: 90.6%
COc1cc2c(Nc3ccc(Br)cc3F)ncnc2cc1OCC1CCN(C)CC1: 97.5%
O=Nc1c(-c2c(O)[nH]c3ccccc23)[nH]c2ccccc12: 19.9%
O=C(c1ccccc1)c1ccc(N2CCOCC2)cc1O: 100%

Series 3
Cell line: HaCaT
Concentration: 100 µM
Time: 18 h
Quantity: viability
O=C(Nc1ccccc1)c1ccccc1O: 45.2%
CCCSc1nc(N[C@@H]2C[C@H]2c2ccc(F)c(F)c2)c2nnn([C@@H]3C[C@H](OCCO)[C@@H](O)[C@H]3O)c2n1: 15.4%
[H]/N=C(/N)N[C@H]1[C@H](O)[C@@H](O)[C@H](O[C@@H]2O[C@@H](C)[C@](O)(C=O)[C@H]2O[C@@H]2O[C@@H](CO)[C@H](O)[C@@H](O)[C@@H]2NC)[C@@H](N/C(N)=N\[H])[C@@H]1O: 111%
CN(C)CC[C@@H](c1ccc(Cl)cc1)c1ccccn1: 114%
OC[C@H]1O[C@@H](n2cnc3c(O)ncnc32)[C@H](O)[C@@H]1O: 94.2%
CCCCNc1cc(C(=O)O)cc(S(N)(=O)=O)c1Oc1ccccc1: 110%
COc1cc2ccc(=O)oc2c(O)c1O: 84.9%
CC(=O)N(CC(O)CO)c1c(I)c(C(=O)NCC(O)CO)c(I)c(C(=O)NCC(O)CO)c1I (mixture of isomers): 110%

Further values, each from its own experiment
CC(C)n1cnc(-c2ccc(F)cc2)c1-c1ncc(C(=O)Nc2ccc(N3CCN(C)CC3)cc2)[nH]1
blood creatinine increased (IPF patients; 30 mg once daily, adverse event incidence): 0%

A few entries again (series 3):
COc1cc2ccc(=O)oc2c(O)c1O: 84.9%
CCCCNc1cc(C(=O)O)cc(S(N)(=O)=O)c1Oc1ccccc1: 110%
CN(C)CC[C@@H](c1ccc(Cl)cc1)c1ccccn1: 114%
CCCSc1nc(N[C@@H]2C[C@H]2c2ccc(F)c(F)c2)c2nnn([C@@H]3C[C@H](OCCO)[C@@H](O)[C@H]3O)c2n1: 15.4%
